Measurements pooled from the literature.
Compare with care: the assays were run in different laboratories.

For `CC(C)C[C@H](NC(=O)[C@@H](Cc1c[nH]c2ccccc12)NC(=O)[C@H](Cc1ccc(O)cc1)NC(=O)[C@H](CO)NC(=O)[C@H](Cc1c[nH]c2ccccc12)NC(=O)[C@H](Cc1c[nH]cn1)NC(=O)[C@@H]1CCC(=O)N1)C(=O)N[C@@H](CCCNC(=N)N)C(=O)N1CCC[C@H]1C(=O)NCC(N)=O`, “patients with TEAEs” read 88.7% (Chinese CPP children, girls; intramuscular, 22.5 mg, 12 months, day 1, month 6).
`O=C(Nc1nc2cccc(-c3ccc(CN4CCS(=O)(=O)CC4)cc3)n2n1)C1CC1`: “patients with Dysgeusia” 8.3% (rheumatoid arthritis patients; oral, 100 mg twice daily, 4 weeks, TEAE regardless of relatedness).
For `FC(F)(F)c1ccc(CNc2ccc(Cc3c[nH]c4ncc(Cl)cc34)cn2)cn1`, “patients with treatment-related adverse event” read 10% (measured: gastroesophageal reflux disease; patients with TGCT; oral, 1000 mg/day, all grades).
`Cc1cc(NC2CCN(C(=O)OC3CCN(C(=O)/C=C/CN(C)C)C3)CC2)n2ncc(C(C)C)c2n1` (stereo not shown): “patients with adverse event” 2% (Phase I dose escalation CTCAE v4.0, measured: decreased appetite; patients with advanced solid tumours; dose not given, Total dosing grade 3 or higher).
Under “patients with adverse event”, `CNC(=O)c1ccc(-c2cnc3ncc(Cc4ccc5ncccc5c4)n3n2)cc1F` is recorded as 28% (measured: Fatigue, all grades; cancer patients; oral, 600 mg twice daily, other expansion cohort, any causality).
For `Cc1cc(-c2nnc(N)nc2-c2ccc(F)cc2)cc(Cl)n1`, “patients with immune-mediated AE” read 0% (measured: Myositis; IO-naive mCRPC patients, male; oral, dose not given, treatment-related, all grades).
For `COc1ccc([C@@H](O)c2cc(-c3ncnc4cc(N5CCOCC5)ccc34)c(F)cc2Cl)nn1`, “patients with TEAE” read 50% (measured: general and administration site disorders; locally advanced rectal cancer patients; 250 mg, together with: capecitabine plus radiotherapy).
For `C=CC[C@@H]1/C=C(\C)C[C@H](C)C[C@H](OC)[C@H]2O[C@@](O)(C(=O)C(=O)N3CCCC[C@H]3C(=O)O[C@H](/C(C)=C/[C@@H]3CC[C@@H](O)[C@H](OC)C3)[C@H](C)[C@@H](O)CC1=O)[C@H](C)C[C@@H]2OC`, “patients with subtherapeutic C0” read 65% (kidney transplant recipients, whole blood; oral, dose not given, early post-transplant phase).
`C=CCN1CC(=O)N2[C@@H](Cc3ccc(O)cc3F)C(=O)N(Cc3cccc(N4CC(N5CCN(CC)CC5)C4)n3)C[C@@H]2N1C(=O)NCc1ccccc1` — result for “patients with ALT increased”: 12.5% (advanced solid tumour patients; 120 mg twice daily, treatment-related, any grade).
For `COc1cc(Nc2ncc3c(n2)-c2ccc(Cl)cc2C(c2c(F)cccc2OC)=NC3)ccc1C(=O)O`, “patients with adverse event” read 17% (measured: increased AST, grade 1; cancer patients, phase 1/2; oral, dose not given, together with: pembrolizumab).
